Results from different studies.
A part holds a random share of what one study measured.

Block 1
Target: Histone acetyltransferase KAT6A, winged helix 1, GST fusion (KAT6A, Homo sapiens, UniProt Q92794, residues 1-85)
Technique: protein binding microarray
Form: double-stranded DNA, one strand shown
Medium: in vitro
Tested at: not given
Notes: 8-mer, flanks averaged, mean of 2 arrays, mostly near background
Reference: not given
Reading: higher = stronger binding
Residues (chain): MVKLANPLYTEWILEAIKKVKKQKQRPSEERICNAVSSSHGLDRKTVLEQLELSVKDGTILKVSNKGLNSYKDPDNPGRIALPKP
Strand	E-score
CTCATTGA	-0.124
CGCCGTCC	0.415
CTAGAGAG	-0.23
CCTCTAGA	-0.0835
GCGATTCC	0.238

Block 2
Target: Ras GTPase-activating protein-binding protein 1, full length (G3BP1, Homo sapiens, UniProt Q13283)
UniProt Q13283, sequence (whole entry, looked up): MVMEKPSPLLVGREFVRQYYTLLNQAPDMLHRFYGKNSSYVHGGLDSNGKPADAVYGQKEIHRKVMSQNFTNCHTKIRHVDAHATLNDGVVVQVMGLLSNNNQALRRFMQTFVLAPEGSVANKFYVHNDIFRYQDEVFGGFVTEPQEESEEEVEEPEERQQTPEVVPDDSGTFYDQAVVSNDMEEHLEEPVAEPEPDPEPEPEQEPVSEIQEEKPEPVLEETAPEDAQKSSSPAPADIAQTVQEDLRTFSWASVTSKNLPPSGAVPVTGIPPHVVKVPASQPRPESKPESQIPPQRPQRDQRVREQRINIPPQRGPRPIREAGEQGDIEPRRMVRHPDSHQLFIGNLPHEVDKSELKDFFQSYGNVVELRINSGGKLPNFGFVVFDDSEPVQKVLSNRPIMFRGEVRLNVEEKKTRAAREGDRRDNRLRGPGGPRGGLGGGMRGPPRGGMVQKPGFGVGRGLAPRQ
Technique: RNA Bind-n-Seq
Form: RNA
Medium: in vitro
Tested at: 200 nM
Notes: whole 134-nt RNA, ends assumed
Together with: 150 mM KCl
Reference: input library
Reading: higher = stronger binding
Strand	log2 enrichment
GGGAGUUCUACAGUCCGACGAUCACCAUGCAGGUCGGCAUCUUUGGGAAGUGGGGCAAGGGGGGGAUAGGGAGGGGGGUAACACUUUGGGAACAGGUGGUCCCAGGUCGUUUCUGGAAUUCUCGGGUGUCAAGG	1.6
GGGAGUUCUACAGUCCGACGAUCCUCAAGUCCUGUGCUACACAUCGUAUGUACCGAAUCGGGGUGGGUGGGGUGGGGAAAGUAUUAUGUUACGCCGUUCGGAUCUGCACUUCCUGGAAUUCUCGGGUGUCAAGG	0.0452
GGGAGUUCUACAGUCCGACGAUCCACAGACAACACGCACCCACACAGACACAGAGGGAAGGGGUUGGGAUGGGGACAUGGUGCACAGCAGGGCGGGGUAGGACCCCAGCCCCUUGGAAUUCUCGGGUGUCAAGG	1.65
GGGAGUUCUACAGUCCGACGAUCUCCUGUGCUACACAUCGUAUGUACCGAAUCGGGGAAAAAAAGGGGAGGGGUUUUUGGGGAAAGUAUUAUGUUACGCCGUUCGGAUCUGCAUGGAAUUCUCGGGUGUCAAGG	0.515
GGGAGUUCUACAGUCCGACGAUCUCCUGUGCUACACAUCGUAUGUACCGAAUCGGGAAAAAGGGUUUUUUUGGGAAAAAGGGAAAGUAUUAUGUUACGCCGUUCGGAUCUGCAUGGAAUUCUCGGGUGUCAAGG	-0.628

Block 3
Target: RNA binding protein fox-1 homolog 2, RRM domain, GST-SBP tag (RBFOX2, Homo sapiens, UniProt O43251-10, residues 100-194)
Technique: RNA Bind-n-Seq
Form: RNA
Medium: in vitro
Tested at: 365 nM
Notes: natural RNA segment, single round, ends assumed
Reference: no-protein control
Reading: higher = stronger binding
Target sequence (chain): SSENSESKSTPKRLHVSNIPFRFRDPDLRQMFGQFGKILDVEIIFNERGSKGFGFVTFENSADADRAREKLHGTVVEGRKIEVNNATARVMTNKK
Strand	RBNS enrichment (R)
GGGAGUUCUACAGUCCGACGAUCUAGUGUUAUCUGACUAAUUCCUCUGAAUUUUGAUGUAAGAUCUAUAUAGGCCCCCAAAAUGAUCGUAGUACAUGCCAGUCAUUUCUCAGUGAAAUAAAUACAAUACCAGAUGGAAUUCUCGGGUGCCAA	0.498
GGGAGUUCUACAGUCCGACGAUCAGAAGUACAUGAGGGGCGCAGAGAUGAGCACACAGCUUUGGGCACGGUCCAGGGCAAACUGAAAUGUACGCCUGAAUUUUGUAAACAGAAGUAUUAAAUGUCUCUUUCUAUGGAAUUCUCGGGUGCCAA	0.308
GGGAGUUCUACAGUCCGACGAUCCUACUUACAUUGUGUUCAUAUAUUUUGAAAAGACUUCUCUACUUUACCGUGGUCCUCCGUUGUGAGUGUUGCAGGGCUAUAGGAAGACAAAGCCUGGGGUACCCGCAUCUUGGAAUUCUCGGGUGCCAA	0.673
GGGAGUUCUACAGUCCGACGAUCUGAAGACAAAAGAUGUUUUUAUUUUAGACCCAGAAGAGAGGAGUUUGCUCUGAAUUUGUAAAUAAGUCUUCCCCAUUCCUCAUACUCGAGCCUCUCCUCUCUGGUUGCCUUGGAAUUCUCGGGUGCCAA	0.422

Mixed results
Molecule	target	assay	system	conditions	scale	endpoint	value
PhoQ, residues 284 288 289 292 302 303 SLSVQF	PhoP, residues 12 14 15 18 19 TPWLV (Escherichia coli, UniProt P23836)	Sort-seq, refers to: YFP reporter	E. coli	PhoQ-PhoP variant library, together with: 10 µM Mg2+	reference: high Mg2+ state, higher = stronger signaling	fold induction	16.9

Some of these lines once more (block 1):
Strand	E-score
CTCATTGA	-0.124
CGCCGTCC	0.415
